Assay results from different studies.
Protocols differ between the studies behind these lines. Numbers after ± are the reported error.
SLC6A4: Sodium-dependent serotonin transporter (SLC6A4, Homo sapiens, UniProt P31645)
FGFR1: Fibroblast growth factor receptor 1 (FGFR1, Homo sapiens, UniProt P11362)

The IC50 of `O=C(NCCCN1CCC(Cc2ccccc2)CC1)c1ccc2ccccc2c1` is reported as 60 to 180 nM (SLC6A4; transporter uptake).
The IC50 of `N=C(N)NCCC[C@@H](NC(=O)[C@@H](CCCNC(=N)N)NC(=O)CCCCCNC(=O)[C@@H](CCCCN)NC(=O)CCCCCNC(=O)c1ccc(-c2ccnc(N)n2)s1)C(N)=O` is reported as 229 nM (cGMP-dependent protein kinase 1, isoform alpha (PRKG1, Homo sapiens, UniProt Q13976); inhibitor, fluorescence anisotropy displacement; with: ARC-1059 probe and cGMP).
`O=C(O)/C=C\c1ccc2occc2c1O[C@@H]1O[C@H](CO)[C@@H](O)[C@H](O)[C@H]1O` has an IC50 of 24600 nM (Solute carrier family 22 member 12 (SLC22A12, Homo sapiens, UniProt Q96S37)).
`COCCCN1CCc2c(Cc3ccc(Cl)cc3)[nH]c3c(OC)ccc(c23)C1=O` has an IC50 of 8.8 nM (cGMP-specific 3',5'-cyclic phosphodiesterase (PDE5A, Homo sapiens, UniProt O76074); enzyme activity, inhibitor).
`COc1cc2nccc(Oc3ccc(NC(=S)Nc4ccccc4F)c(Cl)c3)c2cc1C(N)=O` gave an IC50 of 2800 nM (FGFR1).
`Cc1ccc2oc(-c3c4c(N)n[nH]c(=O)c4nn3-c3ccc(NC(=O)/C=C/CN(C)C)cc3)c(C)c2c1` has an IC50 of greater than 1000 nM (Receptor tyrosine-protein kinase erbB-4 (ERBB4, Homo sapiens, UniProt Q15303); enzyme activity, inhibitor, ELISA).
With `CNC(=O)c1ccc(C)c(NC(=O)c2cnn3ccccc23)c1` the IC50 was 2000 nM (Epithelial discoidin domain-containing receptor 1 (DDR1, Homo sapiens, UniProt Q08345); cell-free assay).
For `Cc1ccc(CNC(=O)[C@@H](NC(=O)[C@H](CCc2ccccc2)NC(=O)[C@H](CCc2ccccc2)NCc2cnccn2)C(C)C)cc1`, the IC50 was 229 nM (20S proteasome (Plasmodium falciparum, UniProt A0A5K1K7U1+Q8IJT1); β5 activity, inhibitor; with: Suc-LLVY-AMC, PA28α-activated).
`CC(C)C[C@H](NC(=O)[C@H](Cc1ccc(O)cc1)NC(=O)[C@@H](CCCNC(=N)N)NC(=O)[C@@H](CO)NC(=O)[C@H](Cc1ccccc1)NC(=O)[C@H](CC1CCCCC1)NC(=O)[C@@H](N)CC(=O)O)C(=O)N[C@@H](Cc1c[nH]c2ccccc12)C(=O)N[C@@H](CO)C(=O)O` has an IC50 of 6.7 ± 1.6 nM (Urokinase plasminogen activator surface receptor (Homo sapiens, UniProt Q03405); binding to pro-uPA, inhibitor, surface plasmon resonance; with: uPAR 0.5 nM).
With `CC(C)S(=O)(=O)c1cccc(O)c(=O)c1O` the IC50 was 103000 ± 13000 nM (Protein P, RNase H domain (P, Hepatitis B virus genotype D subtype ayw, UniProt P03156); RNase H activity, inhibitor; Hepatitis B virus).
The IC50 of `CC[C@H](C)[C@H](NC(C)=O)C(=O)N[C@H](CC(=O)N[C@H](C(=O)N[C@@H](C)C(=O)N[C@@H](CCC(N)=O)C(=O)N[C@@H](CCC(=O)O)CC(=O)N[C@@H](CC(C)C)C(=O)N[C@@H](CCCNC(=N)N)C(=O)N[C@@H](CCCNC(=N)N)CC(=O)N[C@H](C(=O)NCC(=O)N[C@@H](CC(=O)O)C(=O)N[C@@H](CCC(=O)O)CC(=O)N[C@@H](Cc1ccccc1)C(=O)N[C@@H](CC(N)=O)C(=O)N[C@@H](C)CC(=O)N[C@@H](Cc1ccc(O)cc1)C(=O)N[C@@H](Cc1ccc(O)cc1)C(N)=O)[C@@H](C)CC)[C@@H](C)CC)Cc1c[nH]c2ccccc12` is reported as 620 ± 35 nM (Bcl-2-like protein 2 (BCL2L2, Homo sapiens, UniProt Q92843); competition SPR; pH 7.4, with: BimBH3 peptide).
With `CCC(CC)c1nc(-c2ccc(O)cc2O)cs1` the IC50 was 11700 nM (Semaphorin-3C, with neuropilin-1 (SEMA3C, Homo sapiens, UniProt Q99985); SEMA3C binding, inhibitor, displacement; with: SEMA3C-AP).
With `COC(=O)c1ccc(/C=C/C(=O)c2ccc(O)c(OC)c2)cc1` the IC50 was 830 nM (Protein disulfide-isomerase (P4HB, Homo sapiens, UniProt P07237); enzyme activity, inhibitor).
With `NCc1cccc(C2CCN(C(=O)c3cccc(NC(=O)C(=O)C4(O)CCC4)c3)CC2)c1` the IC50 was 42.2 nM (Tryptase beta-1 (Homo sapiens, UniProt Q15661); enzyme activity, inhibitor; tryptase 100 pM, with: AMC substrate).
`COc1cc2nccc(Oc3ccc(NC(=S)NC4CC4)c(Cl)c3)c2cc1C(=O)N1CCCCC1` has an IC50 of greater than 10000 nM (FGFR1).
The IC50 of `C[C@@H](O)[C@H](NC(=O)CP(=O)(O)OC[C@H]1O[C@@H](n2cnc3c(N)ncnc32)[C@H](O)[C@@H]1O)C(=O)O` is reported as 400 nM (tsaD/tsaC, with TsaB and TsaE (Escherichia coli, UniProt P05852+P45748); HPLC; pH 7.5, 23 °C, with: 0.1 mM ATP).
With `CNCc1c(OCc2ccc(F)cc2)ccc2ccccc12` the IC50 was 5030 nM (SLC6A4; transporter uptake, inhibitor, radiometric).
